Assay results gathered from unrelated publications.
Every numbered part comes from another study and shows a few of its results, in no order. Changes are numbered by the printed parent chain.

Series 1
Molecule: PhoQ, residues 284 288 289 292 302 303 SSCCRF
Method: Sort-seq
Item: YFP reporter
Sample: E. coli
Setting: PhoQ-PhoP variant library
Together with: 10 µM Mg2+
Relative to: high Mg2+ state
Direction: higher = stronger signaling
It gave 3.26 for fold induction (PhoP, residues 12 14 15 18 19 HHYTI (Escherichia coli, UniProt P23836)).
PhoP, residues 12 14 15 18 19 SFCSL (Escherichia coli, UniProt P23836) — fold induction: 12.1.
For PhoP, residues 12 14 15 18 19 AYFRS (Escherichia coli, UniProt P23836): fold induction read 8.61.

Series 2
Target: CCNF, cyclin fold, Cln2 fusion (human)
Method: yeast growth competition, sequencing
Sample: yeast
Setting: strong parent motif
Relative to: not given
Direction: higher = stronger binding
Parent: E2F1 docking peptide (human); PPVKRRLDLETDH; partner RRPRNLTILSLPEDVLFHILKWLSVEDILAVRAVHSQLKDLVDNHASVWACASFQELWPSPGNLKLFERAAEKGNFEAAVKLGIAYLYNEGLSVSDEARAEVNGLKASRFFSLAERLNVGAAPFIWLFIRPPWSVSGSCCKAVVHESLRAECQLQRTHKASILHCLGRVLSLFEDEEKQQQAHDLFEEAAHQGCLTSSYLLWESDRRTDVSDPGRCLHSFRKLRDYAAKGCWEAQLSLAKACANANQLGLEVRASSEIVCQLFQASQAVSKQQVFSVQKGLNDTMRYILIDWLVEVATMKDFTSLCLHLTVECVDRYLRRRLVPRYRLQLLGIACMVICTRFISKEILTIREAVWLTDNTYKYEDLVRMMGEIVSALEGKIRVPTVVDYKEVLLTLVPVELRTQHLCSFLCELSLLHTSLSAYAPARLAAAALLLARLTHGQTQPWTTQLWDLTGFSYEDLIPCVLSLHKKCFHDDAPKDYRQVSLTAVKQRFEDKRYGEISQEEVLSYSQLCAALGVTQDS
Under “normalised enrichment score”, `PPVKRRLDLEFDH [T11F]` is recorded as 7.11.
`PPYKRRLDLETDH [V3Y]` — result for “normalised enrichment score”: 3.47.
For `PLVKRRLDLETDH [P2L]`, “normalised enrichment score” read 4.46.
`PPVKRRLDLYTDH [E10Y]`: “normalised enrichment score” 7.44.
Under “normalised enrichment score”, `PPVKRRLMLETDH [D8M]` is recorded as 8.01.
`PPVKRRLDLEIDH [T11I]`: “normalised enrichment score” 6.74.
Under “normalised enrichment score”, `PPVKRRLDLETDP [H13P]` is recorded as 6.35.
`PPVKRRCDLETDH [L7C]` — result for “normalised enrichment score”: 0.286.
`PPVMRRLDLETDH [K4M]`: “normalised enrichment score” 4.99.
For `PPVKRRLDLEPDH [T11P]`, “normalised enrichment score” read 8.93.
`PPVKRRIDLETDH [L7I]`: “normalised enrichment score” 1.92.
`PPGKRRLDLETDH [V3G]`: “normalised enrichment score” 2.58.
`PPVKRRLDLETAH [D12A]`: “normalised enrichment score” 7.31.
`PPVKRRLDLEWDH [T11W]` — result for “normalised enrichment score”: 7.79.

Series 3
Target: RNA binding protein fox-1 homolog 2, RRM domain, GST-SBP tag (RBFOX2, Homo sapiens, UniProt O43251-10, residues 100-194)
Method: RNA Bind-n-Seq
Form: RNA
Sample: in vitro
Tested at: 365 nM
Setting: natural RNA segment, single round, ends assumed
Relative to: no-protein control
Direction: higher = stronger binding
Construct (chain): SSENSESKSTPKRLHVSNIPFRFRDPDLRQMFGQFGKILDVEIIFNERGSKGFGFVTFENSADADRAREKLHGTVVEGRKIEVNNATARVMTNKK
For `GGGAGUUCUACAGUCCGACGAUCCCCUUCUCCUGGGGUGAUUGAUGGCCUGAGCCUGGGGUCCUGGUAGUAGAGACCCAGCUGGCCUGGGGUCUGCUUUCCGACAUUUUGCCUCUCUCACUGGUCAUGUAUUUUGGAAUUCUCGGGUGCCAA`, “RBNS enrichment (R)” read 0.325.
For `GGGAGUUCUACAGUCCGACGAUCCUCCUCCCUGCUCUCCUGUGCAGGAAUGUCUCUGAGCUGUUCACGUUGAUGCUUCUUGGUUGGCAAGACUUGGGUGUAGACAUGAAACCAUCUUACUAAAAGCGUCUUAAUGGAAUUCUCGGGUGCCAA`, “RBNS enrichment (R)” read 0.875.
Under “RBNS enrichment (R)”, `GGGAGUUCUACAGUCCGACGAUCAGUAUGUCAUCCGUUAUAGUUUCCCCAUGCUUUCAGCGCAUGGCCAUGAGAUUUUUACAUGUGCAUAAGUAUUUAGCCAAUACACAUUUUGCUGACUUCUUUAACCAUUUUGGAAUUCUCGGGUGCCAA` is recorded as 0.326.
`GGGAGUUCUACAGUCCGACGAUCGCUGCUGCGUCUAUCAGGAGAGCAGGAUCAGAUUAUGGUAUCCAGAUACCAGUAGAAGAAUUGGAUGUUAUACUAUACUUAGCACCUUAAUUCUACUUAACAUUUACUUCUGGAAUUCUCGGGUGCCAA` — result for “RBNS enrichment (R)”: 0.293.
`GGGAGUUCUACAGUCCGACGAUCUAGUUUCAGCGUUAGAUAAAGUUUUUCCACCAUACAUCUUUAGGUGCAUUCAUCUUUAGGUGACUGAAUGUUAAGAAAUCUGUGUGCAUAGUUACUAAGUUUUUAUGAACUGGAAUUCUCGGGUGCCAA` — result for “RBNS enrichment (R)”: 0.33.
`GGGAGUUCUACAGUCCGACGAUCUGUCUAAUGAUUUAAAUGUAACCCAAGACUUUAAGUGUGGGUUACUUAAUGUGUUCCUGAAGAGGUUGUGCUUCCUGACAAAUGCUGUCAGGUCAUUAUUUGCUGUAUCAUGGAAUUCUCGGGUGCCAA`: “RBNS enrichment (R)” 0.468.
`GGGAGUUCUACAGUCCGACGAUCUGUGUGUGUGUACGUGAGGCAGAAGAAUAUGACAGAUGUCAGCUUCUCCCUGUGUCAGAUGAUAUGUCCUUGAAGCUGGCAGGGGAUUCCCAGUCCAGGGAAUAUCCCUAUGGAAUUCUCGGGUGCCAA`: “RBNS enrichment (R)” 2.12.
Under “RBNS enrichment (R)”, `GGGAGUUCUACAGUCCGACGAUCUUCUCCACCAUUUUCGUACGUCUCCUGUCCUGGUUUUUUCUUCUGCACUCUUGGAGAGAUUUAGAUGUUGGUCUCCUGGUUUGUGUUUCUCCGAGACAAUGCUCUUUUUUUGGAAUUCUCGGGUGCCAA` is recorded as 2.54.

Series 4
Target: RING finger protein unkempt homolog, zinc fingers 1-6, GST-SBP tag (UNK, Homo sapiens, UniProt Q9C0B0, residues 30-357)
Chain of UniProt Q9C0B0 (30-357, looked up): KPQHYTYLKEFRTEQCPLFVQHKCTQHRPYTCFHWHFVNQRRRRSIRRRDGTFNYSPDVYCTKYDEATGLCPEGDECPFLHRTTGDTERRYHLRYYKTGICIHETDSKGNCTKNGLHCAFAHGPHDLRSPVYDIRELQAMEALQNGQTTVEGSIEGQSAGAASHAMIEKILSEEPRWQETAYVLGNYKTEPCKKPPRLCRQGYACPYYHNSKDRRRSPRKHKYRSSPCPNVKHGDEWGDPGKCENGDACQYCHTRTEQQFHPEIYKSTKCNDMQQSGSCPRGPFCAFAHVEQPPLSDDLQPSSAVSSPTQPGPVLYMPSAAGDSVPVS
Method: RNA Bind-n-Seq
Form: RNA
Sample: in vitro
Tested at: not given
Setting: RNA with constant flanks, human-mouse chimeric sites, ends assumed
Relative to: input RNA pool
Direction: higher = stronger binding
For `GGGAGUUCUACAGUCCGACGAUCAAAGCCCAAGUAUUUUGAAAAAACUCGAACAGAUUUGUCAAGGGUAACCAGCUUGGAGUCUAGCAACUUGCCAAUGUUGCUUACCAACUGGGGGCUUGUUUUUCUUUUCUUCUUUCAAAUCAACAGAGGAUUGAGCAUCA`, the bound/input enrichment was 0.148 ratio.
With `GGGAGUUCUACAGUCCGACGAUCCACGUGUCUGCAGUGCUUGAUGUGGACUACUCUCCCACUGGGAAGGAAUUUGUGUCUGCCAGCUUUGAUAAAUCUAUUAGAAUCUUUCCUGUGGACAAGAGCCGAAGCAGGGAAGUGUAUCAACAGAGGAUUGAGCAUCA` the bound/input enrichment was 0.545 ratio.
With `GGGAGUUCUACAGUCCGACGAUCGGAUUCCGCUUCCGGUUCCGUUGGGCUCGGUUCUCUCCUGAGCUACGUGUCUCUACGCUCUCAAUCCGCCAUCCAACAAACAUGGAUCAGGUAAUGCUGCAGUUUGUGCCCAGCCGGCAGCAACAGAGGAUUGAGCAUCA` the bound/input enrichment was 0.112 ratio.
`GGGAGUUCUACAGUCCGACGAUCUUUCUACUGCAGCAAACGAUGCUAAGAAUUAAGGAUCCUAAGAAGUCCCUGGAUUUUUAUACGAGGGUUCUUGGACUGACCCUCCUGCAGAAGCUUGAUUUUCCCAUUAUGAAGUUUUCGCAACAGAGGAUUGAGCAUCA` has a bound/input enrichment of 0.293 ratio.
The bound/input enrichment of `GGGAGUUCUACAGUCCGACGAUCUGUAGUUUCUUGAUUUAUCAUUUUUCUUGCUCGGGUUUUUCCUUUAGGAAAAGCCUAAAGAUUAGGUUGUAAGAAAAACAGAAGCCAGCCAUGUUUCACCUGUGUUACAGGUAUUUCGUCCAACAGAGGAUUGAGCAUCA` is reported as 0.254 ratio.
`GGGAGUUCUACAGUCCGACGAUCAUCAAAUACUUUGGGGACAUCAUUAGUGUGGGACAGAGACUGUUGCAAGGAGCUCGGAUUUUAGGAAUUCCAGUUAUCAUAACGGAACAAUACCCCAAAGGACUUGGCAGCACCGUUCAACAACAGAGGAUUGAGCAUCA` has a bound/input enrichment of 0.407 ratio.
The bound/input enrichment of `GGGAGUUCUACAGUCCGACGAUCUACUGCUGCUUUCAACUUAAAUCACUGAGGCAUCUCUACUGUUCUGUGAGCAUCAGGACUGUAGCGCUGUGUCACCACAUGAGAGUUGUUAAGCAGCCUUUCUGUGGAGGGUGGGAAUGACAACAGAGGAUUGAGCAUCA` is reported as 0.107 ratio.
For `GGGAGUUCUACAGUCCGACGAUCAAUGUUCUUAAUAUUUUUGAAUAAAUGAAGCUAAAAUGUCUGCUUUUGGUACAACACGCAUUAGCGAAAGGUUAAGUUUUGUUUUCCACUGAAGUACUAUUUAACAUCUCAGAAAAAAACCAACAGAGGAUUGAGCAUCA`, the bound/input enrichment was 0.423 ratio.

For quick reference, copied from above (series 3):
For `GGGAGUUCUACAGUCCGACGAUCCCCUUCUCCUGGGGUGAUUGAUGGCCUGAGCCUGGGGUCCUGGUAGUAGAGACCCAGCUGGCCUGGGGUCUGCUUUCCGACAUUUUGCCUCUCUCACUGGUCAUGUAUUUUGGAAUUCUCGGGUGCCAA`, “RBNS enrichment (R)” read 0.325.
For `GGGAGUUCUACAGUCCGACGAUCCUCCUCCCUGCUCUCCUGUGCAGGAAUGUCUCUGAGCUGUUCACGUUGAUGCUUCUUGGUUGGCAAGACUUGGGUGUAGACAUGAAACCAUCUUACUAAAAGCGUCUUAAUGGAAUUCUCGGGUGCCAA`, “RBNS enrichment (R)” read 0.875.
